Values quoted from earlier work, collected from citations in different studies.
Lines come from different studies, so protocols differ. Converted amounts (≈) assume the structure as drawn.
Chain of UniProt Q9NYL2 (whole entry, looked up): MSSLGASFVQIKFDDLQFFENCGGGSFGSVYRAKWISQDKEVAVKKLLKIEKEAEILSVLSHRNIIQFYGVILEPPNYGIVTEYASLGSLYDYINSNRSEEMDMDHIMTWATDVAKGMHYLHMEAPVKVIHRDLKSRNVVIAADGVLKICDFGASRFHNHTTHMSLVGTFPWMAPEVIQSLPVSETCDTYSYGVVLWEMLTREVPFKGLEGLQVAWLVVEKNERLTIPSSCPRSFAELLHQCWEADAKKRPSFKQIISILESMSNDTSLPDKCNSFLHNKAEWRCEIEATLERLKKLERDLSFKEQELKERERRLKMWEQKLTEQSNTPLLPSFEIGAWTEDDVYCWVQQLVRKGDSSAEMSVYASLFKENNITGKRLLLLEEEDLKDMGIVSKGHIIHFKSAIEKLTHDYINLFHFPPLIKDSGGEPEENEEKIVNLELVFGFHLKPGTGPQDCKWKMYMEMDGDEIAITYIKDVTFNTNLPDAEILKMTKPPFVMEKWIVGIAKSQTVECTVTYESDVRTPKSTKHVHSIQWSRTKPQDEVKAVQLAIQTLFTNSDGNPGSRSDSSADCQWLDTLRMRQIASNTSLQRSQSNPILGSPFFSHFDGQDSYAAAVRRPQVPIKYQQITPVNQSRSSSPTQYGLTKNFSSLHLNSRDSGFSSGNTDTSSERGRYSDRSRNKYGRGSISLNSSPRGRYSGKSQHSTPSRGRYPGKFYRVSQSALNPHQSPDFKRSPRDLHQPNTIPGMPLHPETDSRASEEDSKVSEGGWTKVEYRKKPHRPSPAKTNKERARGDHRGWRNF

Compound | tested on | assay | test system | conditions | scale | quantity | value
CCc1c(Cl)c(O)c(Cl)c(O)c1C(=O)O[C@H]1[C@H](O)[C@H](OC)[C@H](OC/C2=C\C=C\C[C@H](O)/C(C)=C/[C@H](CC)[C@@H](O[C@@H]3OC(C)(C)[C@@H](OC(=O)C(C)C)[C@H](O)[C@@H]3O)/C(C)=C/C(C)=C/C[C@@H]([C@@H](C)O)OC2=O)O[C@@H]1C | Enterococcus faecium |  | 119-39A vancomycin-susceptible |  |  | MIC | > 16 µg/mL
CCc1c(Cl)c(O)c(Cl)c(O)c1C(=O)O[C@H]1[C@H](O)[C@H](OC)[C@H](OC/C2=C\C=C\C[C@H](O)/C(C)=C/[C@H](CC)[C@@H](O[C@@H]3OC(C)(C)[C@@H](OC(=O)C(C)C)[C@H](O)[C@@H]3O)/C(C)=C/C(C)=C/C[C@@H]([C@@H](C)O)OC2=O)O[C@@H]1C | Lactobacillus reuteri |  | HM-102 |  |  | MIC | > 32 µg/mL
CNC(C)C1CCC(N)C(OC2C(N)CC(N)C(OC3OCC(C)(O)C(NC)C3O)C2O)O1 (stereo not shown) | Klebsiella pneumoniae |  | clinical isolate RKI-No_95/16 |  |  | MIC | ≤ 0.5 µg/mL
CO[C@@H]1[C@@H](OC(N)=O)[C@@H](O)[C@H](Oc2ccc3c(O)c(NC(=O)c4ccc(O)c(CC=C(C)C)c4)c(=O)oc3c2C)OC1(C)C | Mycolicibacterium smegmatis |  | mc2155 |  |  | MIC | 8 µg/mL (≈ 13.1 µM)
CNC(C)C1CCC(N)C(OC2C(N)CC(N)C(OC3OCC(C)(O)C(NC)C3O)C2O)O1 (stereo not shown) | Escherichia coli |  | ATCC BAA-2469 |  |  | MIC | > 256 µg/mL
C[C@H]1COCCN1c1nc(-c2cnc(N)cc2C(F)F)nc(N2CCOCC2)n1 | A549 |  |  |  |  | GI50 | 250 nM
NNC(=O)c1ccncc1 | Mycolicibacterium smegmatis |  | mc2155 |  |  | MIC | 8 µg/mL (≈ 58.3 µM)
C[C@@H](O)[C@H]1C(=O)N2C(C(=O)O)=C(S[C@@H]3CN[C@H](C(=O)N(C)C)C3)[C@H](C)[C@H]12 | Escherichia coli |  | ATCC 25922 |  |  | MIC | 0.008 to 0.06 µg/mL (≈ 0.0209 to 0.156 µM)
C[C@@H](O)[C@H]1C(=O)N2C(C(=O)O)=C(SCCN=CN)C[C@H]12 | Mycolicibacterium smegmatis |  | mc2155 |  |  | MIC | 8 µg/mL (≈ 26.7 µM)
Oc1ccc(-c2nc(-c3ccc(OC4CCCC4)cc3)no2)cc1 | Veillonella sp. |  | HM-49 |  |  | MIC | > 128 µg/mL
CC1(C)S[C@@H]2[C@H](NC(=O)[C@H](N)c3ccccc3)C(=O)N2[C@H]1C(=O)O | Enterobacter cloacae |  | clinical isolate RKI-No_733/14 |  |  | MIC | > 16 µg/mL
Nc1cc(C(F)(F)F)c(-c2nc(N3CCOCC3)nc(N3CCOCC3)n2)cn1 | MAP3K20 (Homo sapiens, UniProt Q9NYL2) | enzyme activity |  | 10 µM | baseline: untreated | remaining activity | 83%
CCN1CCN(C(=O)N[C@@H](C(=O)N[C@@H]2C(=O)N3[C@@H]2SC(C)(C)[C@@H]3C(=O)O)c2ccccc2)C(=O)C1=O | Escherichia coli |  | ATCC 25922 |  |  | MIC | 1 to 4 µg/mL (≈ 1.93 to 7.73 µM)
O=C(N[C@H](CO)[C@H](O)c1ccc([N+](=O)[O-])cc1)C(Cl)Cl | Bacillus cereus |  |  |  |  | MIC | 1 to 4 µg/mL (≈ 3.09 to 12.4 µM)
CO[C@H]1/C=C/O[C@@]2(C)Oc3c(C)c(O)c4c(O)c(c(/C=N/N5CCN(C)CC5)c(O)c4c3C2=O)NC(=O)/C(C)=C\C=C\[C@H](C)[C@H](O)[C@@H](C)[C@@H](O)[C@@H](C)[C@H](OC(C)=O)[C@@H]1C | Mycolicibacterium smegmatis |  | mc2155 |  |  | MIC | 0.8 µg/mL (≈ 0.972 µM)
NCC[C@H](O)C(=O)N[C@@H]1C[C@H](N)[C@@H](O[C@H]2O[C@H](CN)[C@@H](O)[C@H](O)[C@H]2O)[C@H](O)[C@H]1O[C@H]1O[C@H](CO)[C@@H](O)[C@H](N)[C@H]1O | Escherichia coli |  | ATCC BAA-2469 |  |  | MIC | > 256 µg/mL

Some of these lines once more:
Compound | tested on | assay | test system | conditions | scale | quantity | value
CCc1c(Cl)c(O)c(Cl)c(O)c1C(=O)O[C@H]1[C@H](O)[C@H](OC)[C@H](OC/C2=C\C=C\C[C@H](O)/C(C)=C/[C@H](CC)[C@@H](O[C@@H]3OC(C)(C)[C@@H](OC(=O)C(C)C)[C@H](O)[C@@H]3O)/C(C)=C/C(C)=C/C[C@@H]([C@@H](C)O)OC2=O)O[C@@H]1C | Lactobacillus reuteri |  | HM-102 |  |  | MIC | > 32 µg/mL
CNC(C)C1CCC(N)C(OC2C(N)CC(N)C(OC3OCC(C)(O)C(NC)C3O)C2O)O1 (stereo not shown) | Klebsiella pneumoniae |  | clinical isolate RKI-No_95/16 |  |  | MIC | ≤ 0.5 µg/mL
